# Assay results gathered from unrelated publications.
# Organism: Candida parapsilosis
SMILES,test,test system,setting,how to read,measurement,value
OC(Cn1cncn1)(Cn1cncn1)c1ccc(F)cc1F,broth microdilution,"CGMCC 2.399, RPMI-1640","48 h, 30 °C",,MIC,4 µM
NOCC(=O)O,,CP1,,,MIC,1000 µg/mL
COc1ccc(N/N=C/c2ccc(-c3cccc(/C=N/Nc4ccc(OC)cc4)c3)cc2)cc1,,ATCC 22019,,relative to: mammalian CC50 over MIC,selectivity index,< 0.6
CC(=O)ON=C1C=CC(=C(C#N)c2ccccc2)C=C1,broth dilution,ATCC 22099,"48 h, 37 °C",,MIC,16 µg/mL
CC(=O)N1CCN(c2ccc(OCC3COC(Cn4ccnc4)(c4ccc(Cl)cc4Cl)O3)cc2)CC1 (stereo not drawn),broth microdilution,"CGMCC 2.399, RPMI-1640","48 h, 30 °C",,MIC,4 µM
N#CC(=C1C=CC(=NOC(=O)OCc2ccccc2)C=C1)c1ccccc1,broth dilution,ATCC 22099,"48 h, 37 °C",,MFC,64 µg/mL
O=C1/C(=C/c2cc(O)cc(O)c2)Oc2cc(O)cc(O)c21,broth microdilution,,"24 and 48 h, RPMI-1640 medium",,MIC,> 128 µg/mL
C(=N\Nc1ccccc1)/c1ccc(-c2ccc(/C=N/Nc3ccccc3)cc2)cc1,,ATCC 22019,,relative to: mammalian CC50 over MIC,selectivity index,< 0.6
CCOC(=O)CON,,CP1,,,MIC,32 µg/mL

# Repeated from above:
SMILES,test,test system,setting,how to read,measurement,value
C(=N\Nc1ccccc1)/c1ccc(-c2ccc(/C=N/Nc3ccccc3)cc2)cc1,,ATCC 22019,,relative to: mammalian CC50 over MIC,selectivity index,< 0.6
